Assay results pooled from the literature.
Every numbered part comes from another study and shows a few of its results, in no order.

Set 1
Target: RING finger protein unkempt homolog, zinc fingers 1-6, GST-SBP tag (UNK, Homo sapiens, UniProt Q9C0B0, residues 30-357)
Chain of UniProt Q9C0B0 (30-357, looked up): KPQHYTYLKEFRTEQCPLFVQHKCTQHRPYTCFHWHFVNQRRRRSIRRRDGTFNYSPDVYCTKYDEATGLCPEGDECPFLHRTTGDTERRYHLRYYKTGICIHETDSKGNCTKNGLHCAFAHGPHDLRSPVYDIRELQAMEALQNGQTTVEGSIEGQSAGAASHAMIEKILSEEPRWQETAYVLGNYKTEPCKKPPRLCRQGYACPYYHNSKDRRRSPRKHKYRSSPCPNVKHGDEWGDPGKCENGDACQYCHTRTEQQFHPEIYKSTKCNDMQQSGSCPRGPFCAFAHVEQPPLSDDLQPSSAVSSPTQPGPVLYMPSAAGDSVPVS
Method: RNA Bind-n-Seq
Form: RNA
Medium: in vitro
Tested at: not given
Notes: RNA with constant flanks, human-mouse chimeric sites, ends assumed
Relative to: input RNA pool
Direction: higher = stronger binding
`GGGAGUUCUACAGUCCGACGAUCUCUGGUCACACUCGUGUAUAUGGUGUGUGCUUUGUGGACACUUCACUGGGCAAGUUUUUCAUCGGCCAGUUUUCGGAUGAUCGCCAUUGUUCCAGAUUUAGGACGCUAGUGGCUCACUAUCAACAGAGGAUUGAGCAUCA` has a bound/input enrichment of 0.308 ratio.
With `GGGAGUUCUACAGUCCGACGAUCUCCCAAAUCCAGCAGCUAGAAGGAGCCUUGAGACAAACACUCCACACGCAGGGAGGGCGAUAACAUUGUACAUUGGUUUACAUUUUUUCCCCCUGUGUUUUCUAGGGGAGGUCAUAGUGCCAACAGAGGAUUGAGCAUCA` the bound/input enrichment was 0.52 ratio.
For `GGGAGUUCUACAGUCCGACGAUCUAAAUCCAUUUGUAAGCCUUCGCUCAUAAAGUUUUAAAUUCUGGACCAAUAGUGUUUGUUUCCUGAUUAUUGUAUCCAAUACUUUGCCUAGUAUGUAACUCACUCUUACUGAUAAUAAAACAACAGAGGAUUGAGCAUCA`, the bound/input enrichment was 1.55 ratio.

Set 2
Target: Interferon regulatory factor 7, full length, phosphomimetic (IRF7, Homo sapiens, UniProt Q92985, residues 1-503, S101K/S471D/S472D/S475D/S476D/S477D/S483D/S484D/S487D)
Method: protein-binding microarray
Form: double-stranded DNA, one strand shown
Medium: in vitro
Tested at: 250 nM
Notes: 60-bp whole probe
With: salmon DNA 0.4 mg/ml
Relative to: random background probes
Direction: higher = stronger binding
Shared flanks, not repeated: GCCTAGCAC … GTCTTGATTCGCTTGACGCTGCTG
Construct (chain): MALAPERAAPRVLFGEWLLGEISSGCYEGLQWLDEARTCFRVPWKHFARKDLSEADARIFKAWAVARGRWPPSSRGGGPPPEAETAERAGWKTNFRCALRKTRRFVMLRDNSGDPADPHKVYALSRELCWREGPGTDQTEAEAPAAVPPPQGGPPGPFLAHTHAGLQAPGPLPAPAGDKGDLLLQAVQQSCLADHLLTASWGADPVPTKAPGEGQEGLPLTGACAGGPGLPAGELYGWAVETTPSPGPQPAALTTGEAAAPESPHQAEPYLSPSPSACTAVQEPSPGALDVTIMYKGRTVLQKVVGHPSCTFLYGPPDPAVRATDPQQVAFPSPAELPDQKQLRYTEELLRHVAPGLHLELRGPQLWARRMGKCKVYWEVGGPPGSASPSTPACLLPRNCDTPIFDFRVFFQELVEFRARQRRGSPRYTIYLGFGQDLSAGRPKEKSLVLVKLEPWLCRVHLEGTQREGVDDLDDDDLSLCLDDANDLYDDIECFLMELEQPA
With `GACGATCTCAGACTGGAGATGTGCTAG` the log fluorescence was -0.464 z-score.
For `TCATTTTACATTATTACACTGTGCTAG`, the log fluorescence was 1.68 z-score.
For `GACGGTTTCCTTATCATGACGTGCTAG`, the log fluorescence was 2.4 z-score.
With `GACGAACTGTGGTTTCGAGACGTGCTA` the log fluorescence was 3.7 z-score.
With `ATTGTTTTCAGTTTCACTGCGTGCTAG` the log fluorescence was 3.06 z-score.

Set 3
Target: Prothrombin, mature alpha-thrombin (F2, Homo sapiens, UniProt P00734)
Method: aptamer microarray, sandwich
Form: DNA with 2'F-ANA
Medium: in vitro
Tested at: 200 nM
Notes: whole 15-mer aptamer, many near background
With: Cy3 exosite-II aptamer, 400 nM
Direction: higher = stronger binding
Sequence: GGTTGGTGTGGTTGG
`2'F-ANA at 2 3 4 10`: “mean fluorescence intensity” 310 a.u.
`2'F-ANA at 1 2 4 7 11 12 13`: “mean fluorescence intensity” 165 a.u.
`2'F-ANA at 1 5 8 9 10 11 12 13 15`: “mean fluorescence intensity” 49 a.u.
`2'F-ANA at 2 6 8 10 11 12 15` — result for “mean fluorescence intensity”: 138 a.u.
For `2'F-ANA at 2 4 5 9 10 11 13 15`, “mean fluorescence intensity” read 43.8 a.u.
`2'F-ANA at 2 4 5 6 9 11 12 15` — result for “mean fluorescence intensity”: 95.2 a.u.

Mixed results
`PhoQ, residues 284 288 289 292 302 303 TLSLKA` has a fold induction of 1.54 (PhoP, residues 12 14 15 18 19 LHSVW (Escherichia coli, UniProt P23836); Sort-seq, measured: YFP reporter; E. coli; PhoQ-PhoP variant library, with: 10 µM Mg2+; relative to: high Mg2+ state, higher = stronger signaling).
